Measurements collected from several papers.
Parts stem from different laboratories: compare values within a part only. Changes are numbered by the printed parent chain.

Sample 1
Target: Ras GTPase-activating protein-binding protein 1, full length (G3BP1, Homo sapiens, UniProt Q13283)
Sequence of UniProt Q13283 (whole entry, looked up): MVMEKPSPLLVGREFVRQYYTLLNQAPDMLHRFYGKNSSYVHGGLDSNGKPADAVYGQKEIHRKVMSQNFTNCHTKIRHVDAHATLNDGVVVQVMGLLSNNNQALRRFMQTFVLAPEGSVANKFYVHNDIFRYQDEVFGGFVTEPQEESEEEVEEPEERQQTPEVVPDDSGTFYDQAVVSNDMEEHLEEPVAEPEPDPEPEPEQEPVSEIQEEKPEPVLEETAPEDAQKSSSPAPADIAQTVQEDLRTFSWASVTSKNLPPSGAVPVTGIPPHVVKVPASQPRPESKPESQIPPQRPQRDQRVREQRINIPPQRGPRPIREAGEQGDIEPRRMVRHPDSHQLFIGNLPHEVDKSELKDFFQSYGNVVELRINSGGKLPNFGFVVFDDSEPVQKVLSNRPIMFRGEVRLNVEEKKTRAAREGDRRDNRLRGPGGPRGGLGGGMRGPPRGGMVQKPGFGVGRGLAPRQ
Method: RNA Bind-n-Seq
Form: RNA
Medium: in vitro
Concentration: 200 nM
Setting: whole 134-nt RNA, ends assumed
With: 150 mM LiCl
Baseline: input library
Direction: higher = stronger binding
Library: 7-deaza-guanosine replaces G
All sequences stand within: GGGAGUUCUACAGUCCGACGAUC … UGGAAUUCUCGGGUGUCAAGG
| Oligonucleotide | log2 enrichment |
| --- | --- |
| CAAGUCCUGUGCUACACAUCGUAUGUACCGAAUCGGGAGGGAGGGUUUUUUUGGGAAAGUAUUAUGUUACGCCGUUCGGAUCUGCACUUC | 0.128 |
| CACAGACAACACGCACCCACACAGACACAGAGGGAAGGGGUUGGGAUGGGGACAGGGUGCACAGCAGGGCUGGGUAGGACCCCAGCCCCU | 0.548 |
| GCAGGAAGUAAAAACAAAUGGAAAUGCUUCGGAUAGUGGCAGGGGUGGGGGUUUCUAAGGAAAGGGUGGGAUGGGAGUGGGUAAAGAGUU | 0.16 |
| UCAAGUCCUGUGCUACACAUCGUAUGUACCGAAUCGGGGCCGGGCCGGCCGGGGAAAGUAUUAUGUUACGCCGUUCGGAUCUGCACUUCC | 0.684 |
| CAAGUCCUGUGCUACACAUCGUAUGUACCGAAUCGGGAAAGGGUGGGUUUUUGGGAAAGUAUUAUGUUACGCCGUUCGGAUCUGCACUUC | -0.382 |
| CAAGUCCUGUGCUACACAUCGUAUGUACCGAAUCGGGUUUUUGGGAGGGUUUGGGAAAGUAUUAUGUUACGCCGUUCGGAUCUGCACUUC | -0.263 |
| GUCCUGUGCUACACAUCGUAUGUACCGAAUCGGGCCCCCGGGGCCCCCGGGGCCCCCGGAAAGUAUUAUGUUACGCCGUUCGGAUCUGCA | -0.0682 |
| UCCCCCCUAUUGGAAGUAAAGGGGAACAUAGAACUGAAGAGACCUCUGAUUAAGGCCCCUUCCCAGCUGCCUCUCUCAGGAAGCAGACUC | 0.785 |
| AGUCCUGUGCUACACAUCGUAUGUACCGAAUCGGGAAAAAGGGUUUGGGUUUUUGGGAAAGUAUUAUGUUACGCCGUUCGGAUCUGCACU | -1.65 |
| UCCUGUGCUACACAUCGUAUGUACCGAAUCGGGAAAAAGGGGAAAAAGGGGAAAAAGGGAAAGUAUUAUGUUACGCCGUUCGGAUCUGCA | -0.158 |
| GUCCUGUGCUACACAUCGUAUGUACCGAAUCGGGAAAAAGGGAAAAAGGGAAAAAGGGAAAGUAUUAUGUUACGCCGUUCGGAUCUGCAC | -0.0871 |

Sample 2
Target: NFE2, bZIP domain (human)
Method: DHFR protein complementation
Medium: yeast
Setting: single substitutions, most at no-binding floor
Baseline: wild-type JUN-FOS pair
Direction: higher = stronger binding
Starting sequence: JUN, bZIP domain (human); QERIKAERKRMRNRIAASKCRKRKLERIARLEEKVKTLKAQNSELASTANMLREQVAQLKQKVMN; partner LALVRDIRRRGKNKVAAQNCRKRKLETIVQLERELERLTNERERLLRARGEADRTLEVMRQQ
| Substitution | binding fitness [natural log] |
| --- | --- |
| R30V | -1.47 |
| S43L | -1.35 |
| Q58P | -1.48 |
| K34C | -1.45 |
| V56T | -1.28 |
| S47D | -1.45 |
| S43C | -1.36 |
| K39C | -1.49 |
| E32C | -1 |
| L45D | -1.48 |
| E44D | -1.6 |
| L38R | -1.53 |
| L38K | -1.27 |
| N42M | -1.51 |
| E54N | -1.32 |
| S43M | -1.47 |
| Q41V | -1.39 |
| A29S | -1.4 |
| K39M | -1.45 |
| L45R | -1.5 |
| L31K | -1.36 |
| L38I | -1.51 |
| M51E | -1.33 |
| S47Q | -1.34 |
| A49V | -1.06 |

Sample 3
Target: UBE2R2 UBC core domain (UniProt Q712K3)
Method: yeast two-hybrid
Medium: yeast
Setting: mostly zero background
Baseline: not given
Direction: higher = stronger interaction
B1: TRIM55 RING domain (UniProt Q9BYV6); chain TMDNLEKQLICPICLEMFTKPVVILPCQHNLCRKCASDIFQASNPYLPTRGGTTMASGGRFRCPSCRHEVVLDRHG
B2: NSMCE1 RING domain (UniProt Q8WV22); chain RETYPDAVKICNICHSLLIQGQSCETCGIRMHLPCVAKYFQSNAEPRCPHCNDYWPHEIPKV
B3: PHF7 RING domain (UniProt Q9BWX1); chain IQHGHVGEESCILCCEDLSQQSVENIQSPCCSQAIYHRKCIQKYAHTSAKHFFKCPQCNNRKEFPQEML
B4: TRIM3 RING domain (UniProt O75382); chain VQPMDKQFLVCSICLDRYQCPKVLPCLHTFCERCLQNYIPAQSLTLSCPVCRQTSILPEQGV
B5: TRIM15 RING domain (UniProt Q9C019); chain SLKVVHELPACTLCAGPLEDAVTIPCGHTFCRLCLPALSQMGAQSSGKILLCPLCQEEEQAETPMA
B6: RNF175 RING domain (UniProt Q8N4F7); chain LPTRSLSDNICAVCGQKIIVELDEEGLIENTYQLSCNHVFHEFCIRGWCIVGKKQTCPYCKEKVDLKRMIS
B7: PEX2 RING domain (UniProt P28328); chain DNTLATSGKECALCGEWPTMPHTIGCEHIFCYFCAKSSFLFDVYFTCPKCGTEVHSLQPLK
B8: MSL2 RING domain (UniProt Q9HCI7); chain LLPYFRQSLSCCVCGHLLQDPIAPTNSTCQHYVCKTCKGKKMMMKPSCSWCKDYEQFEENKQ
B9: TRIM52 RING domain (UniProt Q96A61); chain PMQTLQEEAVCAICLDYFKDPVSISCGHNFCRGCVTQLWSKEDEEDQNEEEDEWEEEEDEEAV
B10: RNF149 RING domain (UniProt Q8NC42); chain EKGIDVDAENCAVCIENFKVKDIIRILPCKHIFHRICIDPWLLDHRTCPMCKLDVIKALGYW
B11: RNF43 RING domain (UniProt Q68DV7); chain SGSSCSSAPVCAICLEEFSEGQELRVISCLHEFHRNCVDPWLHQHRTCPLCMFNITEGDSFS
Target sequence (chain): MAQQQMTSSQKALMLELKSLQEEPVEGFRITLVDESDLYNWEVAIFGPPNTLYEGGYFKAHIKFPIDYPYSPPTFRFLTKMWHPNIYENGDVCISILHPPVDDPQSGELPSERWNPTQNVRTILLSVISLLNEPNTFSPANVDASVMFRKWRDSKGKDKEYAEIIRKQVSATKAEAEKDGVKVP
| Sequence | lacZ reporter activity |
| --- | --- |
| B1 (TRIM55 RING domain) | 0 |
| B2 (NSMCE1 RING domain) | 0 |
| B3 (PHF7 RING domain) | 0 |
| B4 (TRIM3 RING domain) | 0 |
| B5 (TRIM15 RING domain) | 0 |
| ISNDSETLEECMVCSDMKRDTLFGPCGHIATCSLCSPRVKKCLICKEQVQSRTKIE (MIB1 RING domain (UniProt Q86YT6)) | 0 |
| B6 (RNF175 RING domain) | 0 |
| B7 (PEX2 RING domain) | 0 |
| KRQCSDVDDICSICQAEFQKPILLICQHIFCEECMTLWFNREKTCPLCRTVISDHINKW (RNFT1 RING domain (UniProt Q5M7Z0)) | 0 |
| B8 (MSL2 RING domain) | 0 |
| B9 (TRIM52 RING domain) | 0 |
| KIKDLNEHIVCCLCAGYFVDATTITECLHTFCKSCIVKYLQTSKYCPMCNIKIHETQPLL (PCGF1 RING domain (UniProt Q9BSM1)) | 0 |
| LKQVSIRENCCSLCCDEVADTQLKPCGHSDLCMDCALQLETCPLCRKEIVSRIRQI (RSPRY1 RING domain (UniProt Q96DX4)) | 0 |
| B10 (RNF149 RING domain) | 0 |
| B11 (RNF43 RING domain) | 0 |
| MANWVFCNRCFQPPHRTSCFSLTNCGHVYCDACLGKGKKNECLICKAPCRTVLLSK (RNF212 RING domain (UniProt Q495C1)) | 0 |

Sample 4
Target: ABI1, truncated, D143A, DHFR fusion (Arabidopsis thaliana, UniProt P49597)
Method: DHFR PCA, dose-response
Medium: yeast
Setting: Hill fit, mean, not affinity
With: (+)-ABA, dose series
Direction: lower = more sensitive
Starting sequence: PYL1, truncated, DHFR fusion (Arabidopsis thaliana, UniProt Q8VZS8); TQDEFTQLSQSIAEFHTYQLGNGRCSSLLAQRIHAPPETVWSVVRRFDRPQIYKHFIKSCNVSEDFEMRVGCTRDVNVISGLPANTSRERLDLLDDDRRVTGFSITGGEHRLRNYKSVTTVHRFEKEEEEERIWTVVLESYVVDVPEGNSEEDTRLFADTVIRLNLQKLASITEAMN
| Substitution | ABA EC50 [µM] |
| --- | --- |
| P146C | 67.8 |
| E125M | 1.6 |
| P146Q | 290 |
| E109I | 7.52 |
| R123I | 39.3 |
| D75T | 0.416 |
| S42D | 3.6 |
| T119V | 24.1 |
| E14Y | 28.4 |
| E14N | 11.3 |
| L82Q | 223 |
| V145W | 528 |
| E109A | 7.93 |
| E14C | 16.7 |
| G23V | 78 |
| H122F | 625 |
| V118W | 519 |
| V137T | 268 |
| T120N | 636 |
| R69L | 5.4 |
| V70E | 6.82 |
| G71T | 179 |
| S63I | 3.75 |
| N85K | 0.369 |

Some of these lines once more (sample 3):
| Sequence | lacZ reporter activity |
| --- | --- |
| B8 (MSL2 RING domain) | 0 |
| B6 (RNF175 RING domain) | 0 |
| ISNDSETLEECMVCSDMKRDTLFGPCGHIATCSLCSPRVKKCLICKEQVQSRTKIE (MIB1 RING domain (UniProt Q86YT6)) | 0 |
| B5 (TRIM15 RING domain) | 0 |
| LKQVSIRENCCSLCCDEVADTQLKPCGHSDLCMDCALQLETCPLCRKEIVSRIRQI (RSPRY1 RING domain (UniProt Q96DX4)) | 0 |
| B10 (RNF149 RING domain) | 0 |
| B9 (TRIM52 RING domain) | 0 |
| B4 (TRIM3 RING domain) | 0 |
| B11 (RNF43 RING domain) | 0 |
